Published values of several laboratories.
A part holds a random share of what one study measured.
Sequence of UniProt P11802 (whole entry, looked up): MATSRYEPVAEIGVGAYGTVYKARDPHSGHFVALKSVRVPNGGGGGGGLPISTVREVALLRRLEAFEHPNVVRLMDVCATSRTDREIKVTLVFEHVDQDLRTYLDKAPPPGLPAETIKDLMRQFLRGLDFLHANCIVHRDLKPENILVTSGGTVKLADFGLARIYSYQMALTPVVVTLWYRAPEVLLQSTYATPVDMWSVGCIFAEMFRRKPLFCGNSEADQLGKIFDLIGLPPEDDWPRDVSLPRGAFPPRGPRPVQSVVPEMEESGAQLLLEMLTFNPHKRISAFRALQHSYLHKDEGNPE
Sequence of UniProt P00519 (whole entry, unmodified, looked up): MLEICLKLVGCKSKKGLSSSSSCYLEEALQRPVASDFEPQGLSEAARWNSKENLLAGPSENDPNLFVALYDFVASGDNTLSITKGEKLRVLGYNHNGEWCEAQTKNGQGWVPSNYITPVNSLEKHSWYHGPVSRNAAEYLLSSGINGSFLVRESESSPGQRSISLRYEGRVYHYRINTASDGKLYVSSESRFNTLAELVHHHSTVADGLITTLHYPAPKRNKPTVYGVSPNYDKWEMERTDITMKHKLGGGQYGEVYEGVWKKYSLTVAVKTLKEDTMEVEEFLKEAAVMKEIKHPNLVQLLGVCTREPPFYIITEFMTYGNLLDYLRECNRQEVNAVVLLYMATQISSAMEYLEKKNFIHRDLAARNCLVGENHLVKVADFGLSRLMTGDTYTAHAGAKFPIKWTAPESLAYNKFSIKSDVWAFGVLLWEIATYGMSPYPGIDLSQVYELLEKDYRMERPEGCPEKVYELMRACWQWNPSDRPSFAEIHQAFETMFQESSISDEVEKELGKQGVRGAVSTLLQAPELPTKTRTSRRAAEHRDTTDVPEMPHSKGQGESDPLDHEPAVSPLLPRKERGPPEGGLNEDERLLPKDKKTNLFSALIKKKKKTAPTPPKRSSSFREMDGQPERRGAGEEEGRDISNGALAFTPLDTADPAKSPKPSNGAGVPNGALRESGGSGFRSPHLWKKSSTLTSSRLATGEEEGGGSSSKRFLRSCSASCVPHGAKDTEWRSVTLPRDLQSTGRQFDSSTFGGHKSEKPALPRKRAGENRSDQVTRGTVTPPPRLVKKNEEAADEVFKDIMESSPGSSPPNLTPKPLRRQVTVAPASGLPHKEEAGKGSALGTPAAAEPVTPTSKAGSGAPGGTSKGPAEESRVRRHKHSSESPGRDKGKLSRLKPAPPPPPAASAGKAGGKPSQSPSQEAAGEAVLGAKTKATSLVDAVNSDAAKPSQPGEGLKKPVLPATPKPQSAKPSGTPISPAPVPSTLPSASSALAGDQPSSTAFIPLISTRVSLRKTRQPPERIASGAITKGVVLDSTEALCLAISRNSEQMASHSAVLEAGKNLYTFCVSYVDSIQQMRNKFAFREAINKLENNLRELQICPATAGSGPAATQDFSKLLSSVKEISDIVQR
Sequence of UniProt P51957 (whole entry, looked up): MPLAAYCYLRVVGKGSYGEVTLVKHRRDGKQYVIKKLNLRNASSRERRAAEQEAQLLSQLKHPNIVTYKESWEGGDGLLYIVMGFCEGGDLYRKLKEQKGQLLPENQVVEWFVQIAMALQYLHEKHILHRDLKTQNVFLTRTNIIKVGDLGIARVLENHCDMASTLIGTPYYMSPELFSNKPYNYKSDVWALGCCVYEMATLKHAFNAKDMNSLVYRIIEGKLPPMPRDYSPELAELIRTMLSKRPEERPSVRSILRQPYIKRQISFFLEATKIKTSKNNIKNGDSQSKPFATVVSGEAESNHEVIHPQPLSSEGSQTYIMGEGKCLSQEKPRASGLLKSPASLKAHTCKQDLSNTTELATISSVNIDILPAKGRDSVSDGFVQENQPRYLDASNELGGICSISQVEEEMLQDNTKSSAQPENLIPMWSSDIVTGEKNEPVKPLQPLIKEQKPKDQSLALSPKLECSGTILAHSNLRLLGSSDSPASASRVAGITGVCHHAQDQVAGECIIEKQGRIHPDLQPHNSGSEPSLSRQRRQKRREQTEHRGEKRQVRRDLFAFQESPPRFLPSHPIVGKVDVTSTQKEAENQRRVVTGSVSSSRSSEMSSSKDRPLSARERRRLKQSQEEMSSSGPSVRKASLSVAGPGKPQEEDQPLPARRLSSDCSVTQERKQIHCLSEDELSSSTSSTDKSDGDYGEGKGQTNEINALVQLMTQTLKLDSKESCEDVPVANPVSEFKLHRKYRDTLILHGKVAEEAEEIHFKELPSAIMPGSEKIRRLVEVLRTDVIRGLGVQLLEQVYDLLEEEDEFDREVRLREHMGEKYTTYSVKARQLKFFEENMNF
Sequence of UniProt P35590 (whole entry, looked up): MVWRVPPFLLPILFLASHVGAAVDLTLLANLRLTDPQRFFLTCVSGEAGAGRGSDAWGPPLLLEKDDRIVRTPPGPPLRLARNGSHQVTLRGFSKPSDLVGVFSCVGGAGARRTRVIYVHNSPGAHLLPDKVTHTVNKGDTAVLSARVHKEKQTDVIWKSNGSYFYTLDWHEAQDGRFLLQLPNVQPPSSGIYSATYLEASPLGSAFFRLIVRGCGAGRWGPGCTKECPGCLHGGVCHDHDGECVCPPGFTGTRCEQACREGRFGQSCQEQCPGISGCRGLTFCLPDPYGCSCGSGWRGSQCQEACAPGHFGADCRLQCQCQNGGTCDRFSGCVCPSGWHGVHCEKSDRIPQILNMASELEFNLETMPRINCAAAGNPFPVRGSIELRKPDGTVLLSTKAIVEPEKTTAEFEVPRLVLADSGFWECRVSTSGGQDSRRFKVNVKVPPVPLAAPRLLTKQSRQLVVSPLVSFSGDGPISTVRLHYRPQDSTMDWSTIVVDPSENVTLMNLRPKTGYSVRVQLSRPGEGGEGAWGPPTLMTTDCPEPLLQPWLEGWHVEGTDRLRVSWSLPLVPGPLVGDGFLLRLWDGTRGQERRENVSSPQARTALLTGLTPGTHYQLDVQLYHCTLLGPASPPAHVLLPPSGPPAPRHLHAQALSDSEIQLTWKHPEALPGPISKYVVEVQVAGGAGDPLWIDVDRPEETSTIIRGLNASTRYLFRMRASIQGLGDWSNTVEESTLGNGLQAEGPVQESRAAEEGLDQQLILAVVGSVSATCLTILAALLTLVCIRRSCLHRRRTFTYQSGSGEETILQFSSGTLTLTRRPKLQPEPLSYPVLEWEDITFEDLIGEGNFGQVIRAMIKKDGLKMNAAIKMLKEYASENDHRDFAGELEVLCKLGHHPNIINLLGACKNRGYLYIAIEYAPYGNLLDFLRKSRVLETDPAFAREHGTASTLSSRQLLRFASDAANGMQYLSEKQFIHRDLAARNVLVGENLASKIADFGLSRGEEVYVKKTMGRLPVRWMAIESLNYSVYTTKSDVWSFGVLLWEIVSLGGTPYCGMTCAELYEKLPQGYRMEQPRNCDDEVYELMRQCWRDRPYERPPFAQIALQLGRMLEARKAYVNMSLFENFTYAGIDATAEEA
Sequence of UniProt O14757 (whole entry, looked up): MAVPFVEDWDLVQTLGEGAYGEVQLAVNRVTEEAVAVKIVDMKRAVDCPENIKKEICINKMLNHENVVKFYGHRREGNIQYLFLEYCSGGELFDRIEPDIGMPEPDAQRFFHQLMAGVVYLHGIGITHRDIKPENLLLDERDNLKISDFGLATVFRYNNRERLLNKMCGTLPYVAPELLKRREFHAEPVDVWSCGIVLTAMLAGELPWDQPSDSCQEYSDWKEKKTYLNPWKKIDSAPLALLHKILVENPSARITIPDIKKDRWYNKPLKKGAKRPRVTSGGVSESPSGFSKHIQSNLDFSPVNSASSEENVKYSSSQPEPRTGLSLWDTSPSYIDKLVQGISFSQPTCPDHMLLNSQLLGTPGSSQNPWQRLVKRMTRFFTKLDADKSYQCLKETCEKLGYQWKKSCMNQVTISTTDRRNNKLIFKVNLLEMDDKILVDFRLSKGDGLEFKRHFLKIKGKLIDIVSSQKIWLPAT
Sequence of UniProt Q9H2X6 (whole entry, looked up): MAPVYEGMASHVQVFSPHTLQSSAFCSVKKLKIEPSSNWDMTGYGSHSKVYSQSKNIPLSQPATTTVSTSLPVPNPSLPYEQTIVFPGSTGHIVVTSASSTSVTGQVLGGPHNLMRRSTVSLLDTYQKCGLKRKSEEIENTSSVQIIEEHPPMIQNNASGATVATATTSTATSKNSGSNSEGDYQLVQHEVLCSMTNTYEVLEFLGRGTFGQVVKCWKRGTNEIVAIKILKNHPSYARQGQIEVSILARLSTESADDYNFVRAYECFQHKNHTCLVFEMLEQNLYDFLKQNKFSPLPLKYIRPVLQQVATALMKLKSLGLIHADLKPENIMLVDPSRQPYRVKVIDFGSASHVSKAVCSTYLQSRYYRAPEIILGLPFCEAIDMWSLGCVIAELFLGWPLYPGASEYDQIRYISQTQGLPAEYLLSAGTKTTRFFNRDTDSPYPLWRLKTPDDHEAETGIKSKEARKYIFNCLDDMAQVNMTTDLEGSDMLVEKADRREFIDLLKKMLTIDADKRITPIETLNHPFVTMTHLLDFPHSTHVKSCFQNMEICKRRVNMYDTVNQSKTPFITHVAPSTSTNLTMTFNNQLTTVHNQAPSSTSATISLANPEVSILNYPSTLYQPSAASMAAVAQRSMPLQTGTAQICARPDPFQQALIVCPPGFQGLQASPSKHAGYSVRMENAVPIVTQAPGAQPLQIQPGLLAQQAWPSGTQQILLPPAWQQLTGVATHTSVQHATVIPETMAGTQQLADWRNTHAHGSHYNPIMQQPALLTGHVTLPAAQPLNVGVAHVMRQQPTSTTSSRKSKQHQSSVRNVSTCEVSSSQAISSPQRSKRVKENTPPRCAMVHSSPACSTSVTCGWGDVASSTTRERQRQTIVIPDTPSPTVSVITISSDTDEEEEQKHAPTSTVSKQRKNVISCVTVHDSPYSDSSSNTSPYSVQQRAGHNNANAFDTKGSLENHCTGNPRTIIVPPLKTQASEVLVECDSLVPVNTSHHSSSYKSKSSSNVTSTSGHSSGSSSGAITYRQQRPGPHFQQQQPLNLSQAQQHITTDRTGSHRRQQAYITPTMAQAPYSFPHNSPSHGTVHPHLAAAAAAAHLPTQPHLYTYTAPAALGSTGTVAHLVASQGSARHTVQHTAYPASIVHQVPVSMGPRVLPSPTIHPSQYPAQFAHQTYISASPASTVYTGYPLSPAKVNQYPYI

Sample 1 — observed: enzyme activity; action: inhibitor; tested at: 0.5 µM; relative to: control
SMILES: COc1ccc(S(=O)(=O)N(CCO)c2ccccc2CN(C)CC=Cc2ccc(Cl)cc2)cc1
target	remaining activity [%]
3-phosphoinositide-dependent protein kinase 1 (PDPK1, Homo sapiens, UniProt O15530)	93.7
Ribosomal protein S6 kinase alpha-6 (RPS6KA6, Homo sapiens, UniProt Q9UK32)	102
Ephrin type-B receptor 1 (EPHB1, Homo sapiens, UniProt P54762)	93.3
Tyrosine-protein kinase ABL1 (ABL1, Homo sapiens, UniProt P00519)	100
Tyrosine-protein kinase Srms (SRMS, Homo sapiens, UniProt Q9H3Y6)	101
MAP kinase-activated protein kinase 3 (MAPKAPK3, Homo sapiens, UniProt Q16644)	101
cAMP-dependent protein kinase catalytic subunit gamma (PRKACG, Homo sapiens, UniProt P22612)	104
Cyclin-dependent kinase 1, with cyclin B (CDK1, Homo sapiens, UniProt P06493)	105
Ribosomal protein S6 kinase alpha-5 (RPS6KA5, Homo sapiens, UniProt O75582)	103
Ephrin type-B receptor 4 (EPHB4, Homo sapiens, UniProt P54760)	104
Serine/threonine-protein kinase WNK3 (WNK3, Homo sapiens, UniProt Q9BYP7)	99.4
Homeodomain-interacting protein kinase 4 (HIPK4, Homo sapiens, UniProt Q8NE63)	101
Homeodomain-interacting protein kinase 2 (HIPK2, Homo sapiens, UniProt Q9H2X6)	107
Calcium/calmodulin-dependent protein kinase type II subunit beta (CAMK2B, Homo sapiens, UniProt Q13554)	100
Cyclin-dependent kinase 4, with cyclin D3 (CDK4, Homo sapiens, UniProt P11802)	94.1
Testis-specific serine/threonine-protein kinase 2 (TSSK2, Homo sapiens, UniProt Q96PF2)	107
Dual specificity tyrosine-phosphorylation-regulated kinase 3 (DYRK3, Homo sapiens, UniProt O43781)	113
Serine/threonine-protein kinase 17A (STK17A, Homo sapiens, UniProt Q9UEE5)	102
Ephrin type-A receptor 4 (EPHA4, Homo sapiens, UniProt P54764)	99.2
Phosphorylase b kinase gamma catalytic chain, skeletal muscle/heart isoform (PHKG1, Homo sapiens, UniProt Q16816)	95.4
Serine/threonine-protein kinase 16 (STK16, Homo sapiens, UniProt O75716)	102
Mitogen-activated protein kinase kinase kinase kinase 4 (MAP4K4, Homo sapiens, UniProt O95819)	97.6
Tyrosine-protein kinase Blk (BLK, Homo sapiens, UniProt P51451)	103
Cyclin-dependent kinase 6, with cyclin D3 (CDK6, Homo sapiens, UniProt Q00534)	102

Sample 2 — observed: enzyme activity; action: inhibitor; tested at: 1 µM
Compound: CC(C)S(=O)(=O)c1ccc2nccc(Nc3ccc4sc(C5CCCC5)nc4c3)c2c1
target	activity vs control [%]
Tau-tubulin kinase 2 (TTBK2, Homo sapiens, UniProt Q6IQ55)	100
Inhibitor of nuclear factor kappa-B kinase subunit alpha (CHUK, Homo sapiens, UniProt O15111)	112
Cyclin-dependent kinase-like 2 (CDKL2, Homo sapiens, UniProt Q92772)	89
Serine/threonine-protein kinase TAO3 (TAOK3, Homo sapiens, UniProt Q9H2K8)	95
Dual specificity mitogen-activated protein kinase kinase 3 (MAP2K3, Homo sapiens, UniProt P46734)	99
cAMP-dependent protein kinase catalytic subunit alpha (PRKACA, Homo sapiens, UniProt P17612)	99
Serine/threonine-protein kinase 24 (STK24, Homo sapiens, UniProt Q9Y6E0)	112

Sample 3 — technique: competition with immobilised ligand; tested at: 1 µM
Structure (SMILES): O=C(NCc1ncc(C(F)(F)F)cc1Cl)c1ccc2c(c1)C1(CCS(=O)(=O)CC1)[C@H](C1CC1)N2S(=O)(=O)c1ccc(F)cc1
target	observed	remaining binding [%]
Casein kinase I isoform gamma-1 (CSNK1G1, Homo sapiens, UniProt Q9HCP0)	cell-free assay	86
Serine/threonine-protein kinase Chk1 (CHEK1, Homo sapiens, UniProt O14757)	cell-free assay	100
MAP kinase-activated protein kinase 2 (MAPKAPK2, Homo sapiens, UniProt P49137)	cell-free assay	100
Cyclin-dependent kinase 4 (CDK4, Homo sapiens, UniProt P11802)	cell-free assay	86
cAMP-dependent protein kinase catalytic subunit PRKX (PRKX, Homo sapiens, UniProt P51817)	cell-free assay	88
Serine/threonine-protein kinase Nek4 (NEK4, Homo sapiens, UniProt P51957)	cell-free assay	99
MAP/microtubule affinity-regulating kinase 4 (MARK4, Homo sapiens, UniProt Q96L34)	cell-free assay	100
Mitogen-activated protein kinase kinase kinase kinase 3 (MAP4K3, Homo sapiens, UniProt Q8IVH8)	cell-free assay	100
Cyclin-dependent kinase 13 (CDK13, Homo sapiens, UniProt Q14004)	cell-free assay	88
Dual specificity tyrosine-phosphorylation-regulated kinase 1B (DYRK1B, Homo sapiens, UniProt Q9Y463)	cell-free assay	100
Calcium/calmodulin-dependent protein kinase type II subunit alpha (CAMK2A, Homo sapiens, UniProt Q9UQM7)	cell-free assay	94
Serine/threonine-protein kinase STK11 (STK11, Homo sapiens, UniProt Q15831)	cell-free assay	100
Platelet-derived growth factor receptor alpha (PDGFRA, Homo sapiens, UniProt P16234)	cell-free assay	90
G protein-coupled receptor kinase 3 (GRK3, Homo sapiens, UniProt P35626)	cell-free assay	99
Serine/threonine-protein kinase MRCK beta (CDC42BPB, Homo sapiens, UniProt Q9Y5S2)	cell-free assay	100
Tyrosine-protein kinase receptor Tie-1 (TIE1, Homo sapiens, UniProt P35590)	cell-free assay	100
Tyrosine-protein kinase ABL1, phosphorylated (ABL1, Homo sapiens, UniProt P00519, E255K)	binding	80
Calcium/calmodulin-dependent protein kinase type 1D (CAMK1D, Homo sapiens, UniProt Q8IU85)	cell-free assay	85

Mixed results
SMILES	species	medium	dose	measurement	value
CC(=O)N[C@@H](Cc1c[nH]c2ccccc12)C(=O)N[C@@H](CCC(=O)C=[N+]=[N-])C(=O)OC(C)C	C57BL/6 CES1-/- mice, EL4 tumour-bearing	GI tissue	dose not given	concentration	not detected
